Published values of several laboratories.
Compare with care: the assays were run in different laboratories.
Spike glycoprotein: Spike glycoprotein (Severe acute respiratory syndrome coronavirus 2, UniProt P0DTC2)
rep main protease: Replicase polyprotein 1ab, main protease (rep, Severe acute respiratory syndrome coronavirus 2, UniProt P0DTD1)

| SMILES | tested on | test | test system | conditions | quantity | value |
| --- | --- | --- | --- | --- | --- | --- |
| CC1(C)[C@@H](O)CC[C@]2(C)[C@H]3C(=O)C=C4[C@@H]5C[C@@](C)(C(=O)O)CC[C@]5(C)CC[C@@]4(C)[C@]3(C)CC[C@@H]12 | Spike glycoprotein | binding, BLI |  |  | Kd | 38.7 µM |
| Cn1cnc(Cn2c(=O)[nH]/c(=N\c3cc4cn(C)nc4cc3Cl)n(Cc3cc(F)c(F)cc3F)c2=O)n1 |  |  | human, mild renal impairment, plasma | oral, 375 mg single dose | Tmax | 2.25 h |
| CC[C@H](C)[C@H](NC(=O)[C@H](CC(C)C)NC(=O)[C@H](Cc1c[nH]c2ccccc12)NC(=O)[C@H](CCC(N)=O)NC(=O)[C@@H](NC(=O)[C@H](Cc1ccccc1)NC(=O)[C@H](C)NC(=O)[C@H](CCCCNC(=O)COCCOCCNC(=O)COCCOCCNC(=O)CC[C@H](NC(=O)CCCCCCCCCCCCCCCCCCC(=O)O)C(=O)O)NC(=O)[C@H](CCC(N)=O)NC(=O)[C@H](C)NC(=O)[C@@H](NC(=O)[C@H](CCCCN)NC(=O)[C@H](CC(=O)O)NC(=O)[C@H](CC(C)C)NC(=O)C(C)(C)NC(=O)[C@@H](NC(=O)[C@H](CO)NC(=O)[C@H](Cc1ccc(O)cc1)NC(=O)[C@H](CC(=O)O)NC(=O)[C@H](CO)NC(=O)[C@@H](NC(=O)[C@H](Cc1ccccc1)NC(=O)[C@@H](NC(=O)CNC(=O)[C@H](CCC(=O)O)NC(=O)C(C)(C)NC(=O)[C@@H](N)Cc1ccc(O)cc1)[C@@H](C)O)[C@@H](C)O)[C@@H](C)CC)[C@@H](C)CC)C(C)C)C(=O)N[C@@H](C)C(=O)NCC(=O)NCC(=O)N1CCC[C@H]1C(=O)N[C@@H](CO)C(=O)N[C@@H](CO)C(=O)NCC(=O)N[C@@H](C)C(=O)N1CCC[C@H]1C(=O)N1CCC[C@H]1C(=O)N1CCC[C@H]1C(=O)N[C@@H](CO)C(N)=O |  |  | healthy human subjects, plasma | SC, 5/5/8/10 mg multiple ascending, day 1, median | Tmax | 48 h |
| CC(C)C[C@H](NC(=O)[C@@H](NC(=O)c1cccc(-c2ccccc2)n1)[C@@H](C)O)B(O)O | rep main protease | reporter gene (mKate2), inhibitor |  | 20 µM | inhibition | -1.05% |
| Nc1ncnc2c([C@@H]3N[C@H](CO)[C@@H](O)[C@H]3O)c[nH]c12 | Zaire ebolavirus | antibody staining | HeLa, Kikwit | 200 µM | antigen-positive cells | 0.06% |
| NC(=O)c1ncn([C@@H]2O[C@H](CO)[C@@H](O)[C@H]2O)c1O | rep main protease | reporter gene (mKate2), inhibitor | HEK293T | 20 µM | inhibition | -0.271% |
| CC[C@H](C)[C@H](NC(=O)[C@H](C)NC(=O)[C@H](CCC(=O)O)NC(=O)[C@H](CCC(=O)O)NC(=O)[C@H](CC(C)C)NC(=O)[C@H](CCCCN)NC(=O)[C@H](CCCCN)NC(=O)[C@H](CCSC)NC(=O)[C@H](CCC(=O)O)NC(=O)[C@H](Cc1ccc(O)cc1)NC(=O)[C@H](CCC(=O)O)NC(=O)[C@H](CC(C)C)NC(=O)[C@H](CC(=O)O)NC(=O)[C@H](CC(C)C)NC(=O)[C@H](Cc1ccccc1)NC(=O)[C@@H](NC(=O)[C@@H](NC(=O)[C@H](CC(N)=O)NC(=O)[C@@H](NC(=O)[C@H](CCC(N)=O)NC(=O)[C@H](CC(=O)O)NC(=O)[C@H](CC(C)C)NC(=O)[C@@H](N)CO)[C@@H](C)CC)C(C)C)[C@@H](C)O)C(=O)N[C@@H](CCCCN)C(=O)N[C@@H](CCCCN)C(=O)N[C@@H](CC(C)C)C(=O)N[C@@H](CCC(=O)O)C(=O)N[C@@H](CCC(=O)O)C(=O)N[C@@H](CO)C(=O)N[C@@H](Cc1ccc(O)cc1)C(=O)N[C@H](C(=O)N[C@@H](CC(=O)O)C(=O)N[C@@H](CC(C)C)C(=O)N[C@@H](CCCCN)C(=O)N[C@@H](CCC(=O)O)C(=O)N[C@@H](CC(C)C)C(=O)NCC(=O)N[C@@H](CO)C(=O)NCC(=O)N[C@@H](CO)C(=O)NCC(=O)NCCOCCOCCOCCOCCC(=O)N[C@@H](CSCC(=O)O[C@H]1CC[C@@]2(C)C(=CC[C@H]3[C@@H]4CC[C@H]([C@H](C)CCCC(C)C)[C@@]4(C)CC[C@@H]32)C1)C(N)=O)[C@@H](C)CC | SARS-CoV-2 | pseudovirus infection |  | concentration not given, room temperature, storage | fold reduction of activity | ~58 fold |
| Cn1cnc(Cn2c(=O)[nH]/c(=N\c3cc4cn(C)nc4cc3Cl)n(Cc3cc(F)c(F)cc3F)c2=O)n1 |  |  | healthy Japanese adults, plasma | oral, 125 mg, day 5, fasted, with midazolam | AUC(0-tau) | 424 µg·h/mL |
| CC[C@H](C)[C@H]1O[C@]2(CC[C@@H]1C)C[C@@H]1C[C@@H](C/C=C(\C)[C@@H](O[C@H]3C[C@H](OC)[C@@H](O[C@H]4C[C@H](OC)[C@@H](O)[C@H](C)O4)[C@H](C)O3)[C@@H](C)/C=C/C=C3\CO[C@@H]4[C@H](O)C(C)=C[C@@H](C(=O)O1)[C@]34O)O2 | Spike glycoprotein | binding |  |  | Kd | 30.5 µM |

Excerpt of the above:
| SMILES | tested on | test | test system | conditions | quantity | value |
| --- | --- | --- | --- | --- | --- | --- |
| CC1(C)[C@@H](O)CC[C@]2(C)[C@H]3C(=O)C=C4[C@@H]5C[C@@](C)(C(=O)O)CC[C@]5(C)CC[C@@]4(C)[C@]3(C)CC[C@@H]12 | Spike glycoprotein | binding, BLI |  |  | Kd | 38.7 µM |
